Results collected from several papers.
Every numbered part comes from another study and shows a few of its results, in no order. Changes are numbered by the printed parent chain.

Block 1
Target: Sal-like protein 4, full length isoform B (SALL4, Homo sapiens, UniProt Q9UJQ4-2, residues 1-616)
Technique: universal PBM
Form: double-stranded DNA, one strand shown
Medium: in vitro
Tested at: not given
Setting: 8-mer, flanks averaged, mean of replicates
Reading: higher = stronger binding
| Oligonucleotide | E-score |
| --- | --- |
| CTTACGGC | -0.236 |
| AATGCACC | -0.0475 |
| CTTGTTAA | 0.0697 |
| TATCTCCA | 0.0994 |
| AGTCGAAT | -0.0336 |
| ATCGGACC | -0.22 |

Block 2
Target: Histone acetyltransferase KAT6A, winged helix 1, GST fusion (KAT6A, Homo sapiens, UniProt Q92794, residues 1-85)
Technique: protein binding microarray
Form: double-stranded DNA, one strand shown
Medium: in vitro
Tested at: not given
Setting: 8-mer, flanks averaged, mean of 2 arrays, mostly near background
Baseline: not given
Reading: higher = stronger binding
Construct (chain): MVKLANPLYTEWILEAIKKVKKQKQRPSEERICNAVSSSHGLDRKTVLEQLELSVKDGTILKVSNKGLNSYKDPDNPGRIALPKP
| Oligonucleotide | E-score |
| --- | --- |
| GTTGAGAA | -0.018 |
| ACCGGACG | 0.271 |
| AGGTTACA | 0.018 |
| GTAAGCTA | -0.0248 |

Block 3
Target: CCNB2, cyclin fold, Cln2 fusion (human)
Technique: yeast growth competition, sequencing
Medium: yeast
Setting: weak parent motif
Baseline: not given
Reading: higher = stronger binding
Starting sequence: PKN2 docking peptide (human); VSAVQKLDFSDTM; partner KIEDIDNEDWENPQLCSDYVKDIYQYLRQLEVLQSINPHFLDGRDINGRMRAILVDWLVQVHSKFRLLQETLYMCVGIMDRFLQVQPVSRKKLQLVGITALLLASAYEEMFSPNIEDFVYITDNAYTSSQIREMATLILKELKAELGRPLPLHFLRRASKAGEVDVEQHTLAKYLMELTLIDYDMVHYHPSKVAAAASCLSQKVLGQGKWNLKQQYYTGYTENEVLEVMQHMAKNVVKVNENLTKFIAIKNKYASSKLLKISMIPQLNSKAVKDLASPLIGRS
| Variant | normalised enrichment score |
| --- | --- |
| VSAVQKLDFSDCM [T12C] | 0.463 |
| VSAVQKLDFFDTM [S10F] | -0.278 |
| VSAVQKLDSSDTM [F9S] | 0.204 |
| VSARQKLDFSDTM [V4R] | 0.432 |

Mixed results
| Substance | target | assay | system | conditions | how to read | endpoint | result |
| --- | --- | --- | --- | --- | --- | --- | --- |
| PhoQ, residues 284 288 289 292 302 303 AGGLSV | PhoP, residues 12 14 15 18 19 LWHVM (Escherichia coli, UniProt P23836) | Sort-seq, refers to: YFP reporter | E. coli | PhoQ-PhoP variant library, added: 10 µM Mg2+ | baseline: high Mg2+ state, higher = stronger signaling | fold induction | 1.23 |

A few entries again (block 2):
| Oligonucleotide | E-score |
| --- | --- |
| GTTGAGAA | -0.018 |
